Results gathered from unrelated publications.
Each numbered part is a random draw from the data of one study; scales do not carry over between parts.

Study 1
Target: RNA binding protein fox-1 homolog 2, RRM domain, GST-SBP tag (RBFOX2, Homo sapiens, UniProt O43251-10, residues 100-194)
Technique: RNA Bind-n-Seq
Molecule type: RNA
Matrix: in vitro
Concentration: 365 nM
Notes: natural RNA segment, single round, ends assumed
Reference: no-protein control
Reading: higher = stronger binding
Oligonucleotide	RBNS enrichment (R)
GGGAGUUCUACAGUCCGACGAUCGUGGGUUUCUGACAGCCCAUGGGAAUGCCCUGAAACUACUGUAUCUGAUGUUUGUUUUCGAUGAGGUUCCAUGUUUUGUUUUCUUGGGAAUAAAUUAAUAUAUUGUUUUCUGGAAUUCUCGGGUGCCAA	0.929
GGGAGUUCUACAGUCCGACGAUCCACCUGGCUCUGUCUUCCUACAGCUGCUCGCACUGACCUGUGGGAACCUGUGGGUCAUCCCCAGGCUGAAUGGAGUACACACUAGAAGAGGGAUGAUGCCUAGCAUUGGGUGGAAUUCUCGGGUGCCAA	0.789
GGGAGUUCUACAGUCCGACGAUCAGCUCAGUGAUGUUCCAGCUCCUGGCUAGGCUGCUCAGCCACUCAGCUAGACAAAAGAUCUGUGCCCUGUGUUUCAUCCCAGAGCUUGUUGCCAGAUCACAUGGCUGGAUUGGAAUUCUCGGGUGCCAA	0.65
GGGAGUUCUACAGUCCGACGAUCGUUGGUAUAGAAAUGUCUAAAUCCUAUACUCUAGUUGAGGAAGAUCUUCCAUAAUUUUAUGGUAUUACACAGGGAAAGCUAUGACUGCAGGAUCAGUCUAACUAUACUAUUGGAAUUCUCGGGUGCCAA	0.522
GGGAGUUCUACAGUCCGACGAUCCUCAGGUCUCAGGCACCAGUCCAUGGGUGGUGUUCUGUGAACCCCAUCUCUAAUGCCUUUAAAAGGCUAAAGGGGGCUGAAAGGUCCCUGUAUCAGGUGGUUAACCAAGGUGGAAUUCUCGGGUGCCAA	0.389
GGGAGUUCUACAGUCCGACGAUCAAAACAGCUUCAAAAUAUGCAGCAAAAACCAAUACAACAAAACGAGUGGCACGAUUUAUUUCAAACUAGGCCAGCUGGGAUUCCAGCUUUUCUUCUACUAGUCUGAUGUUUGGAAUUCUCGGGUGCCAA	1.04
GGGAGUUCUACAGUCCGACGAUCUUGGACUCUGCACUCCCUCUCCUCUUCAGGGGCCAGACUUGGCAGCAUGUGCACCAGGUUGGUGUUCACCAGCUCAUGUCUUCCCCACAUCUCUUCUUGCCAGUAAGCAGUGGAAUUCUCGGGUGCCAA	0.654
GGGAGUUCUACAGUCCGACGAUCGGACCUGCUCUUCUCUAGUUCCAGAUCCUGAUGCUAAUUAAUCUCCUCCAGGACACCACAGUCCUUGCCCUACCACACCACAAGUAUUUGGGGGCUCAGCCCUGCCCGGUUGGAAUUCUCGGGUGCCAA	0.543

Study 2
Target: Histone acetyltransferase KAT6A, both winged helices, GST fusion (KAT6A, Homo sapiens, UniProt Q92794, residues 1-181)
Technique: protein binding microarray
Molecule type: double-stranded DNA, one strand shown
Matrix: in vitro
Concentration: not given
Notes: 8-mer, flanks averaged, mean of 2 arrays, mostly near background
Reference: not given
Reading: higher = stronger binding
Target sequence (chain): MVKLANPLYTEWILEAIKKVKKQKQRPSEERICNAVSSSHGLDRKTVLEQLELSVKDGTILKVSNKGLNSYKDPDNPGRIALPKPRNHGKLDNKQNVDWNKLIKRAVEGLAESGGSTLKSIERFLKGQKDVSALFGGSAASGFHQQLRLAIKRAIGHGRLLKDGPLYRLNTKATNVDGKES
Oligonucleotide	E-score
CCAGTCAG	-0.0799
GAGCTACC	-0.033
AGGCTACG	-0.0686
CTGCGTCC	-0.00971
ACGTCTGG	-0.18
ATACATCG	0.000935
AGTGGCCC	-0.0396
AAGTGAGG	-0.218
CCCCCGGG	0.233
AGGGGCCC	-0.0832
AAAATAGA	-0.0672
AGTGCCAC	-0.277
AGTTCAGC	-0.169
TACTTGAA	-0.155
GCGGCAAC	0.246
GCCGAAAC	0.134

Study 3
Target: Prothrombin, mature alpha-thrombin (F2, Homo sapiens, UniProt P00734)
Technique: aptamer microarray, sandwich
Molecule type: DNA with 2'F-ANA
Matrix: in vitro
Concentration: 200 nM
Notes: whole 15-mer aptamer, many near background
With: Cy3 exosite-II aptamer, 400 nM
Reading: higher = stronger binding
Oligonucleotide: GGTTGGTGTGGTTGG
Modification	mean fluorescence intensity [a.u.]
2'F-ANA at 5 6 8 11 12 14	52.5
2'F-ANA at 1 2 5 6 8 9 10 13 15	48.1
2'F-ANA at 1 2 3 4 7 8 10 13 15	58.3
2'F-ANA at 3 6 8 10 12 14 15	375
2'F-ANA at 3 7 8 9 10 11 12 13 14 15	390
2'F-ANA at 3 5 6 8 11 12 15	206
2'F-ANA at 1 3 5 6 9 10 11 14	48.9
2'F-ANA at 1 3 4 6 11 14 15	64.7
2'F-ANA at 2 3 6 7 10 12 13 14	256
2'F-ANA at 2 6 8 10 11 12 14 15	77.8
2'F-ANA at 1 9 11 12 13 15	235
2'F-ANA at 2 3 4 5 7 8 15	98.4
2'F-ANA at 4 7 9 10 12	130

Single results of other studies
Substance	target	test	system	setting	how to read	endpoint	value
PhoQ, residues 284 288 289 292 302 303 WVSSAF	PhoP, residues 12 14 15 18 19 SHWTV (Escherichia coli, UniProt P23836)	Sort-seq, measured: YFP reporter	E. coli	PhoQ-PhoP variant library, with: 10 µM Mg2+	reference: high Mg2+ state, higher = stronger signaling	fold induction	13.1

Excerpt of the above (study 1):
Oligonucleotide	RBNS enrichment (R)
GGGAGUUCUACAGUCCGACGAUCCACCUGGCUCUGUCUUCCUACAGCUGCUCGCACUGACCUGUGGGAACCUGUGGGUCAUCCCCAGGCUGAAUGGAGUACACACUAGAAGAGGGAUGAUGCCUAGCAUUGGGUGGAAUUCUCGGGUGCCAA	0.789
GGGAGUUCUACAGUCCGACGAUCGGACCUGCUCUUCUCUAGUUCCAGAUCCUGAUGCUAAUUAAUCUCCUCCAGGACACCACAGUCCUUGCCCUACCACACCACAAGUAUUUGGGGGCUCAGCCCUGCCCGGUUGGAAUUCUCGGGUGCCAA	0.543
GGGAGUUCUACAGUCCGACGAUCGUGGGUUUCUGACAGCCCAUGGGAAUGCCCUGAAACUACUGUAUCUGAUGUUUGUUUUCGAUGAGGUUCCAUGUUUUGUUUUCUUGGGAAUAAAUUAAUAUAUUGUUUUCUGGAAUUCUCGGGUGCCAA	0.929
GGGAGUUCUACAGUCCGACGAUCAAAACAGCUUCAAAAUAUGCAGCAAAAACCAAUACAACAAAACGAGUGGCACGAUUUAUUUCAAACUAGGCCAGCUGGGAUUCCAGCUUUUCUUCUACUAGUCUGAUGUUUGGAAUUCUCGGGUGCCAA	1.04
